Assay results collected from several papers.
Numbered parts are unrelated; each lists some results of a single study. Substitutions count along the parent as printed.

Set 1
Target: Sal-like protein 4, full length isoform A (SALL4, Homo sapiens, UniProt Q9UJQ4, residues 1-1053)
Chain of UniProt Q9UJQ4 (whole entry, looked up): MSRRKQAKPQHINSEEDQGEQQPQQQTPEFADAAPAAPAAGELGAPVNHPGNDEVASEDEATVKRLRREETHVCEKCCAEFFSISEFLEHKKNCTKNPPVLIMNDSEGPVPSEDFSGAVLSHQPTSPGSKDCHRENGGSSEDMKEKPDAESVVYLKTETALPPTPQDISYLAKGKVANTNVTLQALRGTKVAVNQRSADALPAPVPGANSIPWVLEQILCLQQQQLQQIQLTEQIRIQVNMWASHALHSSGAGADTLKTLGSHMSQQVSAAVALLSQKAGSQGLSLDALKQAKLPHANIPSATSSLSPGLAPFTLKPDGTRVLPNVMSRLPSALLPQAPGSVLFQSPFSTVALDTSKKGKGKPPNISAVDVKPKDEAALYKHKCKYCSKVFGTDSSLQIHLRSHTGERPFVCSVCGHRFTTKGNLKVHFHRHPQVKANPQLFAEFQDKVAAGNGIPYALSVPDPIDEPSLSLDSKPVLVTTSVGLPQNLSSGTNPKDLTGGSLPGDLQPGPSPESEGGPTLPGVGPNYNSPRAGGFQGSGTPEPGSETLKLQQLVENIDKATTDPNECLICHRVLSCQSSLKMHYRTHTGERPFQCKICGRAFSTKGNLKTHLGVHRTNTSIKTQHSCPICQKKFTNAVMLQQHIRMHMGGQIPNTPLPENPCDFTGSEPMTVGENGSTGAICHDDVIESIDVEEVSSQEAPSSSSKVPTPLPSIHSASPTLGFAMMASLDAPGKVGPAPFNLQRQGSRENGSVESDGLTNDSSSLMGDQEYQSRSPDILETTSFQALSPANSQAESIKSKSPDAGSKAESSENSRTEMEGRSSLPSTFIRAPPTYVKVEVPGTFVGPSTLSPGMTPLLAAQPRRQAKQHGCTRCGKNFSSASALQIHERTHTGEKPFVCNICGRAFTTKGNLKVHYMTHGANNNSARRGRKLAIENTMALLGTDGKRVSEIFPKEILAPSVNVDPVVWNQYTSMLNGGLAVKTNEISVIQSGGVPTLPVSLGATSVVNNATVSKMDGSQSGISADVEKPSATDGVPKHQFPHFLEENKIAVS
Method: universal PBM
Molecule type: double-stranded DNA, one strand shown
Matrix: in vitro
Tested at: 600 nM
Setting: 8-mer, flanks averaged, mean of replicates
Reading: higher = stronger binding
Sequence | E-score
GGGGCCAA | -0.357
AACCGCTC | -0.157
CGAGCAAG | -0.311
ATTGTGGG | 0.0103

Set 2
Target: Hepatocyte nuclear factor 3-beta, forkhead domain (FOXA2, Homo sapiens, UniProt Q9Y261, residues 142-269)
Method: protein-binding microarray
Molecule type: double-stranded DNA, one strand shown
Matrix: in vitro
Tested at: not given
Setting: k-mer, scored over probes, only values ≥0.25
Reading: higher = stronger binding
Target sequence (chain): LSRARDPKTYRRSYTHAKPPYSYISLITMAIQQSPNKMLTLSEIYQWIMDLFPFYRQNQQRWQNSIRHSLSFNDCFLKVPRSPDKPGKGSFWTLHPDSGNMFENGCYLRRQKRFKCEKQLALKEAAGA
Sequence | E-score
AGACAACA | 0.29
TAATGCTA | 0.259
CAATTATG | 0.312
ATAAAATG | 0.299

Set 3
Target: CCNB1, cyclin fold, Cln2 fusion (human)
Method: yeast growth competition, sequencing
Matrix: yeast
Setting: weak parent motif
Baseline: not given
Reading: higher = stronger binding
Starting sequence: CDC6 docking peptide (human); TLKGRRLVFDNQL
Substitution | normalised enrichment score
TLKGRRLVADNQL [F9A] | 0.155
TLKGRRLVFHNQL [D10H] | -0.372
TLKGRRLVFQNQL [D10Q] | 0.493
TLKGRRLVFDRQL [N11R] | 0.639

Other studies, line by line
Substance | target | assay | system | setting | scale | measurement | result
PhoQ, residues 284 288 289 292 302 303 NLSRDF | PhoP, residues 12 14 15 18 19 GQAIL (Escherichia coli, UniProt P23836) | Sort-seq, refers to: YFP reporter | E. coli | PhoQ-PhoP variant library, added: 10 µM Mg2+ | baseline: high Mg2+ state, higher = stronger signaling | fold induction | 8.93

A few entries again (set 1):
Sequence | E-score
GGGGCCAA | -0.357
